# Published values of several laboratories.
# ± marks the error that the study gave.
Compound,test,system,setting,how to read,measurement,result
CC(=O)N[C@H](CCCCNC(=O)C(C)F)C(=O)N[C@@H](CS)C(=O)N[C@@H](CS)C(=O)N[C@@H](CCC(=O)O)C(=O)N[C@@H](Cc1c[nH]cn1)C(=O)N[C@H](Cc1ccccc1)C(=O)N[C@@H](CCCNC(=N)N)C(=O)N[C@@H](Cc1c[nH]c2ccccc12)C(=O)N[C@@H](CS)C(=O)N[C@@H](CCCNC(=N)N)C(=O)N1CCC[C@H]1C(=O)N[C@H](C(N)=O)C(C)C (stereo partly drawn) [fluorine-18 labelled],,"male C57BL/6 mice, B16-F10 tumour, tumour","intravenous, 2 h",,tumour uptake,2.12 ± 1.08 %ID/g
CSCC[C@@H]1NC(=O)[C@H](CC(=O)O)NC(=O)CNC(=O)[C@H](CCCNC(=N)N)NC(=O)[C@H](C)NC(=O)[C@H](CCC(=O)O)NC(=O)[C@H](CCCNC(=N)N)NC(=O)[C@@H]2CSSC[C@@H]3NC(=O)[C@H](CO)NC(=O)[C@H]([C@@H](C)O)NC(=O)[C@@H]4CCCN4C(=O)[C@H](C)NC(=O)[C@H](Cc4c[nH]c5ccccc45)NC(=O)[C@H](CC(=O)O)NC(=O)CNC(=O)[C@H](CCCNC(=N)N)NC(=O)CNC(=O)[C@H](CCC(N)=O)NC(=O)[C@@H]4CCCN4C(=O)[C@@H](NC(=O)CNC(=O)C(C)F)CSSC[C@H](NC(=O)CNC(=O)[C@H](C)NC(=O)[C@H](CC(C)C)NC(=O)[C@H](CSSC[C@@H](C(=O)NCC(N)=O)NC(=O)[C@H]([C@@H](C)O)NC(=O)[C@H](CCCNC(=N)N)NC(=O)[C@@H]4CCCN4C1=O)NC(=O)[C@H](CC(=O)O)NC(=O)[C@H](CO)NC(=O)[C@H](CC(=O)O)NC(=O)[C@H](CCC(N)=O)NC(=O)[C@H](CO)NC3=O)C(=O)N[C@@H](C(C)C)C(=O)N2 (stereo partly drawn) [fluorine-18 labelled],,"nude mouse, U-87 MG xenograft, pancreas","intravenous, 2.5 h, with: cyclo(RGDyK) co-injected",,tissue uptake,0.19 ± 0.03 %ID/g
COc1ccc(Nc2ccc3c(c2)C(c2ccccc2F)=NC(C)C(=O)N3)cc1 (stereo not drawn),shake flask,PBS,"24 h, pH 7.4",,solubility,< 1 µM
CN[C@@](C)(C[18F])C(=O)O,,"SCID mouse MDA-MB-468 xenograft, liver","60 min, post injection",,tissue uptake,4.5 ± 0.4 %ID/g
CCCCCCCCCCCC[N+](C)(C)Cc1ccccc1,in vitro-in vivo extrapolation,human,,,hepatic clearance,1.69 mL/h/g liver
CS(=O)(=O)CCCn1c(Cn2c(=O)n(CC(F)(F)F)c3ccncc32)cc2cc(Cl)ccc21,,RSV-infected infants,"concentration not given, mid-high dose cohort",,patients with high MCH,0%
CC(C)C(=O)OC[C@H]1O[C@@H](n2ccc(NO)nc2=O)[C@H](O)[C@@H]1O,microdialysis,"pregnant rat, blood, fetus, placenta, amniotic fluid","iv, 100 mg/kg, with: NBMPR 10 mg/kg",baseline: compound alone,biotransformation and biodistribution,no effect
CNC(=O)c1ccc(-c2cnn3ccc(C(=O)N(C)c4ccc(Cl)c(C(=O)OC)c4)cc23)cc1,,"Wistar rats, both sexes, plasma","oral, 250 mg/kg/day, day 14, 2-week toxicology study",,AUC(0-8 h),10.3 ng·h/mL
O=C(NCc1ccc(F)cc1F)c1cn(Cc2ccccc2)cc(O)c1=O,,PBS,"72 h, pH 7.2",,solubility,2.2 µM
NC(=O)c1nc(F)c[nH]c1=O,UV-Vis spectrophotometry,supercritical CO2,"120 min, 328 K, 12 MPa, 506.85 kg/m^3",,solubility,15 µg/mL
CC(C)[C@H]1C(=O)N[C@@H](CCCN=C(N)N)C(=O)NCC(=O)N[C@@H](CC(=O)O)C(=O)N[C@H](Cc2ccccc2)C(=O)N1C,,"NMRI mice, female, plasma","intravenous, 2.5 mg/kg",,plasma half-life,18 min
CC[C@H](C)[C@H](NC(=O)[C@@H](N)CCCNC(=N)N)C(=O)N[C@H](C(=O)N1CCC[C@H]1C(=O)N[C@@H](C)C(N)=O)C(C)C,,"healthy volunteers, both sexes, plasma","intravenous infusion, 5.0 mg/kg, single ascending dose",,Tmax,4.9 ± 1 min
